Experimental data from different studies.
Lines come from different studies, so protocols differ. ± marks the error that the study gave.
Organism: Plasmodium falciparum

With `CCC1=C(CC)/C(=C/NC2CCCCC2)N=C1c1ccc(C)[nH]1` the IC50 was 0.0356 µM (parasite growth, ex vivo SYBR Green; Ugandan clinical isolates; 72 h, geometric mean).
The IC50 of `NC(N)=Nc1ccc(-c2ccc(-c3ccc(N=C(N)N)c(Cl)c3)o2)cc1Cl` is reported as 0.337 µM (parasite growth, inhibitor, SYBR Green I; Cam3.1 R539T (MRA-1240)).
The IC50 of `CC(C)(C)[C@]1(O)CCN2C[C@H]3c4ccccc4CCc4cccc(c43)[C@@H]2C1` is reported as 7.94 µM (D10).
For `Cl.O[C@]12C=C(c3nccc4c3[nH]c3ccccc34)[C@@H]3CCN(CCCC/C=C\CC1)C[C@@]31C[C@@H]3/C=C\CCCCN3[C@H]12`, the IC50 was 6.1 ± 2.4 ng/mL (parasite LDH; D6, chloroquine-sensitive; 72 h).
`Oc1ccc2c3c1O[C@H]1c4[nH]c5c(c4C[C@@]4(O)[C@@H](C2)N(CC2CC2)CC[C@]314)C[C@@]1(O)[C@H]2Cc3ccc(O)c4c3[C@@]1(CCN2CC1CC1)[C@H]5O4` gave an IC50 of 34 µM (growth, SYBR Green; FVO; 36 h).
The IC50 of `CC(C)(C)NC(=O)[C@@H]1CN(Cc2cnc3occc3c2)CCN1C[C@@H](O)C[C@@H](Cc1ccccc1)C(=O)N[C@H]1c2ccccc2C[C@H]1O` is reported as 10.8 µM (parasite growth, inhibitor, SYBR Green I; Cam3.1 R539T (MRA-1240)).
The IC50 of `CC[N+](CC)(CC)CCOc1ccc(/C=C/c2ccccc2)cc1` is reported as 1 µM (GB4).
`Cc1nc(-c2ccc(OCC(C)C)c(C#N)c2)sc1C(=O)O` — result for IC50: “inactive” (growth, SYBR green; FVO; 36 h).
The IC50 of `CC1(C)N=C(N)N=C(N)N1c1ccc(Cl)cc1` is reported as 1.2 ± 0.52 µM (growth, [3H]-hypoxanthine uptake; FCR3; 72 h).
`CC(CN1c2ccccc2Sc2ccccc21)N(C)C` (stereo not drawn) gave an IC50 of 2.51 µM (W2).
`N=C(CC(O)c1cc2c(F)cc(F)cc2c2cc(C(F)(F)F)ccc12)Nc1cc(F)c(F)c(F)c1` (stereo not drawn) has an IC50 of 0.0002 to 0.0252 µM (parasite growth, HRP2 ELISA; clinical isolates from Gabon; ex vivo, range over isolates).
With `CCCCCCCCCCOc1cc2c(O)c(C(=O)OCC)cnc2cc1OCC` the IC50 was less than 0.0057 µM (parasite growth, SYBR Green; FCB).
With `Cn1cc(C(F)(F)F)nc1-c1ccc(OCC(O)CNCCOc2ccc(O)c(C(N)=O)c2)cc1` (stereo not drawn) the IC50 was 10 µM (7G8).
`N=C(CC(O)c1cc2c(F)cc(F)cc2c2cc(C(F)(F)F)ccc12)Nc1ccc(Br)c(F)c1` (stereo not drawn) gave an IC50 of 0.0122 µM (parasite growth, HRP2-ELISA; clinical isolates from Gabon; ex vivo, median).
The IC50 of `COC(=O)c1c(-c2cc(OC)c(OC)c(OC)c2)c2ccc(OCc3ccccn3)cc2c(=O)n1-c1ccc(N)cc1` is reported as 2.51 µM (GB4).
With `O=C(O)c1ccc(-n2nc(-c3ccccc3O)nc2-c2ccccc2O)cc1` the IC50 was greater than 100 µM (parasite growth, inhibitor, SYBR Green I; Cam3.1 R539T (MRA-1240)).
For `COC1=CC(c2ccc[nH]2)=N/C1=C\c1[nH]c(Cc2ccc(OC(F)(F)F)cc2)cc1Cc1ccc(OC(F)(F)F)cc1`, the IC50 was 0.027 µM (parasite growth; Dd2; 72 h, synchronized rings).
`CCOC(=O)Nc1ccc(NCc2ccc(F)cc2)nc1N` has an IC50 of 2.51 µM (GB4).
The IC50 of `COc1cccc(N2CCN(C3=Nc4c(F)cccc4[C@H](CC(=O)O)N3c3cc(C(F)(F)F)ccc3OC)CC2)c1` is reported as 40.5 µM (parasite growth, inhibitor, SYBR Green I; Cam3.1 R539T (MRA-1240)).
`CCN(CC)CCCC(C)Nc1ccnc2cc(Cl)ccc12` (stereo not drawn) has an IC50 of 0.02 ± 0.001 µM (growth, [3H]-hypoxanthine uptake; Dd2; 72 h).
With `CC(C)(C)C(O)C(Oc1ccc(-c2ccccc2)cc1)n1cncn1` (stereo not drawn) the IC50 was 52 µM (parasite growth, inhibitor, SYBR Green I; Cam3.1 R539T (MRA-1240)).
`CC(=O)O[C@H]1C(=O)[C@@]2(C)[C@H]([C@H](OC(=O)c3ccccc3)[C@]3(O)C[C@H](OC(=O)[C@H](O)[C@@H](NC(=O)c4ccccc4)c4ccccc4)C(C)=C1C3(C)C)[C@]1(OC(C)=O)CO[C@@H]1C[C@@H]2O` gave an IC50 of 0.0794 µM (3D7).
The IC50 of `NCCN(C(=O)c1ccc(Cl)cc1Cl)c1ccc(OCc2ccc(Cl)cc2)cc1` is reported as 3.66 µM (parasite growth, inhibitor, SYBR Green I; Cam3.1 R539T (MRA-1240)).
For `O=c1c(O)c(-c2ccc(O)cc2O)oc2cc(O)cc(O)c12`, IC50 read “inactive” (growth, SYBR green; FVO; 36 h).
